Experimental data collected from several papers.
Compare with care: the assays were run in different laboratories. Several values in a cell are separate wells, animals, samples, runs or records. ± marks the error that the study gave.

`COc1cc2nccc(Oc3ccc(NC(=O)NC4CC4)c(Cl)c3)c2cc1C(N)=O` — result for AMPK phosphorylation: “no effect” (A549 and H460 (LKB1-null); Western blot; concentration not given, 1 h).
`O=C(NCc1ccccc1)c1c(/N=C/c2c(O)ccc3ccccc23)sc2c1CCCC2` gave a viability of 117% (HBL-1; 0.1 µM, 120 h).
The protein level of `CC/C(=N\NC(=O)NCc1cccc(O)c1)c1ccc(O)c(C)c1O` is reported as 0.21 ± 0.1 (SK-OV-3; Western blot, refers to: phospho-YAP; 10 µM, 1 h, 3D gellan gum culture, unit not given; relative to: total YAP).
For `Nc1ncnc2n[nH]c(Nc3ccc(F)cc3)c12`, the inhibition was 71% (HeLa expressing Ub(G76V)-GFP; Ub(G76V)-GFP degradation, cycloheximide chase; 12 µM).
With `CO[C@@]12[C@H](COC(N)=O)C3=C(C(=O)C(C)=C(N)C3=O)N1C[C@@H]1N[C@@H]12` the inhibition was 94.1% (BT-12; cell viability, MTT; 10 µM, 72 h).
`COc1cc2c(NC3CCN(C)CC3)nc(N3CCCN(C)CC3)nc2cc1OCCCN(C)C` has a viability of 111% (HBL-1; 0.1 µM, 120 h).
With `CCn1cc(-c2cc(Cn3ccnc3)cc3c2CCN([C@H](c2cc(OC)ccn2)C2CC2)C3=O)c(C(F)(F)F)n1` the EC50 was 25 nM (RS4; cell growth, inhibitor; 120 h).
`Nc1cccc2c1C(=O)N(C1CCC(=O)NC1=O)C2=O` (stereo not shown) — result for “surface marker level”: 160% (RPMI-8226; flow cytometry, refers to: CD81; concentration not given; relative to: comparator compound alone).
With `CC(=O)Nc1cccc(-n2c(=O)n(C3CC3)c(=O)c3c(Nc4ccc(I)cc4F)n(C)c(=O)c(C)c32)c1` the fractional effect was 0.891 and 0.897 (COLO 205; cell viability, resazurin; 6.25 nM, 72 h; relative to: DMSO).
`O=C1NC(=O)C(c2cn(CCCn3ccnc3)c3ccccc23)=C1Nc1ccccc1` has an inhibition of 40% (HeLa expressing Ub(G76V)-GFP; Ub(G76V)-GFP degradation, cycloheximide chase; 12 µM).
`O=C(C[C@@H](C(F)F)n1ccc(F)n1)N1CCC(O)(Cn2cnc3c(cnn3-c3ccc(F)cc3)c2=O)CC1` — result for “cells in G1 phase”: 73% and 74.1% and 70.9% (CHP-212 resistant cells (pooled); PI flow cytometry; 0.1 µM, 24 h).
For `CCC/N=C1\S/C(=C\c2ccc(OC[C@H](O)CO)c(Cl)c2)C(=O)N1c1ccccc1C`, “log2 fold change” read 0.634 (human primary astrocytes; single-cell RNA-seq, refers to: TAGLN mRNA; concentration not given, 24 h, with: cytokine stimulation; relative to: cytokine alone).
`C=CC(=O)Nc1cc(Nc2nccc(-c3cn(C)c4ccccc34)n2)c(OC)cc1N(C)CCN(C)C` has an inhibition of 93.4% (BT-12; cell viability, MTT; 10 µM, 72 h).
Under “point of departure”, `Cc1c(C)c2c(c(C)c1O)CCC(C)(COc1ccc(CC3SC(=O)NC3=O)cc1)O2` (stereo not shown) is recorded as 39.8 µM (HepG2; high content imaging, refers to: nuclear size; 24 h, expected PoD over plates).
With `OC1(c2ccc(Cl)c(C(F)(F)F)c2)CCN(CCCC(c2ccc(F)cc2)c2ccc(F)cc2)CC1` the inhibition was 95.9% (BT-12; cell viability, MTT; 10 µM, 72 h).
`CCCCN1CCN(c2ccc3[nH]c(-c4ccc5[nH]c(-c6ccc(OCC)c(OCC)c6)nc5c4)nc3c2)CC1` gave a growth percent of 35.2% (Hs-578T; SRB; 10 µM, 48 h).
`COc1cc(/C=C/C(=O)N2CCC=CC2=O)cc(OC)c1OC` gave a mRNA level of 87.2 ± 49.8% (MDA-MB-468; quantitative RT-PCR, refers to: MAPK10; 30 µM, 8 h; relative to: untreated cells).
`COc1cc(/C=C/C(=O)N2CCC=CC2=O)cc(OC)c1OC` gave an inhibition of 95% (BT-12; cell viability, MTT; 10 µM, 72 h).
The cAMP accumulation of `CSCC[C@H](NC(=O)[C@H](Cc1ccc(OS(=O)(=O)O)cc1)NC(=O)[C@@H](N)CC(=O)O)C(=O)NCC(=O)N[C@@H](Cc1c[nH]c2ccccc12)C(=O)N[C@@H](CCSC)C(=O)N[C@@H](CC(=O)O)C(=O)N[C@@H](Cc1ccccc1)C(N)=O` is reported as 0.247 a.u. (HEK293T control virus; agonist, GloSensor cAMP; 0.0256 nM, no receptor expressed; higher = more cAMP).
`Cc1[nH]c(C)c(-c2ccc(OCCCc3ccccn3)cc2)c(=O)c1Br` has an IC50 of 321 ± 108 nM (Plasmodium yoelii; 17XL; 384-well).
The potency ratio of `CCc1ccc(NC(=O)Nc2c[nH]c3ccccc23)cc1` is reported as 8.2 fold (THP1-Dual KI-hSTING-R232; inhibitor; relative to: R232 over HAQ STING variant).
With `COc1ccc(C(=O)Nc2sc3c(c2C(N)=O)CCCC3)cc1OC` the inhibition was 28% (HeLa expressing Ub(G76V)-GFP; Ub(G76V)-GFP degradation, inhibitor, cycloheximide chase; 12 µM).
With `COc1cc([C@@H]2c3cc4c(cc3[C@@H](O[C@@H]3O[C@@H]5CO[C@@H](C)O[C@H]5[C@H](O)[C@H]3O)[C@H]3COC(=O)[C@H]23)OCO4)cc(OC)c1O` the viability was 14.7% (HBL-1; 0.5 µM, 120 h).
With `COc1cccc2c1C(=O)c1c(O)c3c(c(O)c1C2=O)C[C@@](O)(C(C)=O)C[C@@H]3O[C@H]1C[C@H](N)[C@H](O)[C@H](C)O1` the inhibition was 94.3% (BT-12; cell viability, MTT; 10 µM, 72 h).
For `CC(NC(=O)c1ccccc1/N=C/c1c(O)ccc2ccccc12)c1ccccc1` (stereo not shown), the viability was 124% (HBL-1; 0.1 µM, 120 h).
With `Cn1c(Nc2nc3ccc(C(F)(F)F)cc3s2)nc2cc(C(=O)NCCOCCO)ccc21` the fold change was 2.1 (SH-SY5Y; RNA-seq, refers to: SH3TC1 mRNA; 5 µM, 5 h; relative to: untreated cells).
With `COc1cc2c(NC3CCN(CC4CCCCC4)CC3)nc(N3CCCN(C(C)C)CC3)nc2cc1OCCCN1CCCCC1` the viability was 112% (HBL-1; 1 µM, 120 h).
With `CCOc1nc(-c2cccc(O)c2)cc(-c2cc3ccccc3nc2N2CCOCC2)c1C#N` the selectivity ratio was 0.447 (NFS-60; MTT; relative to: WI-38 EC50 over NFS-60 IC50).
The GI50 of `Cc1c(C(=O)O)ccc2c3n(nc12)[C@@H]1[C@H](C3)N(CC2CC2)[C@@]2(C(=O)Nc3cc(Cl)ccc32)[C@H]1c1cccc(Cl)c1F` is reported as 9 nM (UM-UC-11 (MDM2-amplified); cell proliferation, alamarBlue; 120 h).
`COc1cnc2cccc(N3CCc4c(cc(Cn5ccnc5C)cc4-c4cn(C)nc4C(F)(F)F)C3=O)c2c1` gave an EC50 of 8870 nM (KNS-62; cell growth, inhibitor; 120 h).
For `C=C1C(=O)O[C@H]2[C@H]1CC/C(C)=C/CC[C@@]1(C)O[C@@H]21`, the inhibition was 94.8% (BT-12; cell viability, MTT; 10 µM, 72 h).
`CC[S+]([O-])c1nc(-c2ccccc2)cc(C(F)(F)F)n1` (stereo not shown) — result for “cells with nuclear RelA”: 90.7% and 70.7% (HeLa Kyoto; RelA nuclear import, high content imaging; 1.58 µM, 3 h, with: 1 µM PMA, 60 min).
`Cc1cnc(Nc2ccc(OCCN3CCCC3)cc2)nc1Nc1cccc(S(=O)(=O)NC(C)(C)C)c1` has a beat rate of 107% (iCell cardiomyocytes hiPSC-derived; impedance; concentration not given, 2 h; relative to: vehicle).
The inhibition of `CSc1nc(-c2ccnc(NC(C)c3ccccc3)c2)c(-c2ccc(F)cc2)[nH]1` (stereo not shown) is reported as 46% (HeLa expressing Ub(G76V)-GFP; Ub(G76V)-GFP degradation, cycloheximide chase; 12 µM).
For `Cc1cc(Nc2ncc(Cl)c(Nc3ccccc3S(=O)(=O)C(C)C)n2)c(OC(C)C)cc1C1CCNCC1`, “log2 fold change” read -1.68 (CLB-BAR; phosphoproteomics LC-MS/MS, refers to: STAM2 phosphorylation; 200 nM, 60 min; relative to: untreated).
The inhibition of `Cc1nc2cc3nc(-c4cccs4)cnc3cc2n1C` is reported as 32% (HeLa expressing Ub(G76V)-GFP; Ub(G76V)-GFP degradation, inhibitor, cycloheximide chase; 12 µM).
`O=C(/C=C/C=C/C=C/C1CCCCC1)NC1=C[C@@](O)(/C=C/C=C/C=C/C(=O)NC2=C(O)CCC2=O)[C@@H]2O[C@@H]2C1=O` gave a GI50 of 16500 nM (SNU-886; cell growth, CellTiter-Glo; 78 h).
Under “early apoptotic cells”, `CC1(C)CCC(CN2CCN(c3ccc(C(=O)NS(=O)(=O)c4ccc(NCC5CCOCC5)c([N+](=O)[O-])c4)c(Oc4cnc5[nH]ccc5c4)c3)CC2)=C(c2ccc(Cl)cc2)C1` is recorded as 3.5% (THP-1; annexin V/PI flow cytometry, refers to: annexin V+/PI-; 0.8 µM, 24 h).
The viability of `CC(C)N(CCCNC(=O)Nc1ccc(C(C)(C)C)cc1)C[C@H]1O[C@@H](n2cc(Br)c3c(N)ncnc32)[C@H](O)[C@@H]1O` is reported as 138% (HBL-1; 0.1 µM, 120 h).
`Cn1cc(-c2ccc(-c3cncc(Cl)c3N3CCC4(CCNC4=O)CC3)cc2)cn1`: “log2 fold change” 2.98 (COLO 205; gene expression, microarray, refers to: TNFRSF10B (DR5) mRNA; concentration not given, 6 h; relative to: untreated cells).
`O=C1NC(=O)C(c2cn(CCCO)c3ncccc23)=C1c1cnccn1` gave an inhibition of -16% (HeLa expressing Ub(G76V)-GFP; Ub(G76V)-GFP degradation, cycloheximide chase; 12 µM).
`CC[S+]([O-])c1nc(-c2cccc(OCc3ccccc3)c2)cc(C(F)(F)F)n1` (stereo not shown): “cells with nuclear RelA” 85.4% and 83.5% (HeLa Kyoto; RelA nuclear import, high content imaging; 0.05 µM, 3 h, with: 1 µM PMA, 60 min).
The viability of `Nc1nc(OCc2cc(Br)cs2)c2[nH]cnc2n1` is reported as 107% (HBL-1; 0.1 µM, 120 h).
`O=C(CCc1cc(C(=O)c2ccc(OC3CCCC3)cc2O)ccc1OCc1ccc2c(O)noc2c1)NCCOCCOCCOCCOCCOCCOCCNc1cccc2c1C(=O)N(C1CCC(=O)NC1=O)C2=O` (stereo not shown) gave an ED50 of 8500 nM (FaDu cancer stem cells; tumorsphere formation).
With `C=C(C)[C@@H](CC=C(C)C)C[C@@]12C[C@@H](CC=C(C)C)C(C)(C)[C@@](CC=C(C)C)(C(=O)C(C(=O)c3ccc(O)c(O)c3)=C1O)C2=O` the viability was 56.7% (HBL-1; 1 µM, 120 h).
With `Cc1[nH]c(C)c(-c2ccc(Oc3ccc(Cl)cc3)cc2)c(=O)c1Br` the IC50 was 610 ± 144 nM (Plasmodium yoelii; 17XL; 384-well).

Some of these lines once more:
With `CCOc1nc(-c2cccc(O)c2)cc(-c2cc3ccccc3nc2N2CCOCC2)c1C#N` the selectivity ratio was 0.447 (NFS-60; MTT; relative to: WI-38 EC50 over NFS-60 IC50).
The GI50 of `Cc1c(C(=O)O)ccc2c3n(nc12)[C@@H]1[C@H](C3)N(CC2CC2)[C@@]2(C(=O)Nc3cc(Cl)ccc32)[C@H]1c1cccc(Cl)c1F` is reported as 9 nM (UM-UC-11 (MDM2-amplified); cell proliferation, alamarBlue; 120 h).
`COc1cnc2cccc(N3CCc4c(cc(Cn5ccnc5C)cc4-c4cn(C)nc4C(F)(F)F)C3=O)c2c1` gave an EC50 of 8870 nM (KNS-62; cell growth, inhibitor; 120 h).
For `C=C1C(=O)O[C@H]2[C@H]1CC/C(C)=C/CC[C@@]1(C)O[C@@H]21`, the inhibition was 94.8% (BT-12; cell viability, MTT; 10 µM, 72 h).
`CC[S+]([O-])c1nc(-c2ccccc2)cc(C(F)(F)F)n1` (stereo not shown) — result for “cells with nuclear RelA”: 90.7% and 70.7% (HeLa Kyoto; RelA nuclear import, high content imaging; 1.58 µM, 3 h, with: 1 µM PMA, 60 min).
`Cc1cnc(Nc2ccc(OCCN3CCCC3)cc2)nc1Nc1cccc(S(=O)(=O)NC(C)(C)C)c1` has a beat rate of 107% (iCell cardiomyocytes hiPSC-derived; impedance; concentration not given, 2 h; relative to: vehicle).
